Experimental data pooled from the literature.
Parts stem from different laboratories: compare values within a part only.

Set 1
Target: RING finger protein unkempt homolog, zinc fingers 1-6, GST-SBP tag (UNK, Homo sapiens, UniProt Q9C0B0, residues 30-357)
Chain of UniProt Q9C0B0 (30-357, looked up): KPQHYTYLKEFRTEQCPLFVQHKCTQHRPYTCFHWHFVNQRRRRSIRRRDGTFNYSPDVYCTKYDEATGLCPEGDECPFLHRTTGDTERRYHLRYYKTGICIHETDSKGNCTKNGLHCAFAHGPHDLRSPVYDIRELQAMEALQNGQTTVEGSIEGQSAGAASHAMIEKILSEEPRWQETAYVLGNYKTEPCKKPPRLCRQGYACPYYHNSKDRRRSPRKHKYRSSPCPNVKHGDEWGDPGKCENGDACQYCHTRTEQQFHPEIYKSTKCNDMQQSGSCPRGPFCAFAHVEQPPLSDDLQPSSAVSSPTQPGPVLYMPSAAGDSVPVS
Technique: RNA Bind-n-Seq
Molecule type: RNA
Sample: in vitro
Concentration: not given
Setting: RNA with constant flanks, human-mouse chimeric sites, ends assumed
Relative to: input RNA pool
Reading: higher = stronger binding
`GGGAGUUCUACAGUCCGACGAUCUCAGGAACUCAGACAAACAUGAAUGUAAAUGAAGUCAUUAGCAAUAGAGCAAUUGAAAUGUUAGGAGGUGAACUUGGCAGCAAGAAGCCUGUGCACCCCAAUGAUCAUGUUAACAAAAGCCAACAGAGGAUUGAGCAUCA` has a bound/input enrichment of 0.662 ratio.
`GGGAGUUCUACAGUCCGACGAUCUGGCGCCUGCGCUCCCCACUCGUGUUUUUAAGUGUAUUUUUAUAAGAUACAUGUAUUUACAAUUGAGCUUUUGUUACUAUAAUACUGAAUGCUACUGCAAUAUUAUGAAAAUGUUUCAAUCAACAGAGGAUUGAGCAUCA` has a bound/input enrichment of 0.177 ratio.
With `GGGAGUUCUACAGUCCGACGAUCCCCACGCCUCCUCUCCCACAGGCCCAAGAUGUGACCCACCAGUGCCUUUUGUCUUCCUGUCAGCUCUGUCAAUCACGCCUGUCCUCUCACGCCCACACCAAGUGCCCAAAGUGGGGAGGGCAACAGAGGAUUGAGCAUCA` the bound/input enrichment was 0.803 ratio.
`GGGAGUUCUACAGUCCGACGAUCUAAGUUAUUUUGUACAGCUUUGUAAAUUGUAUAGCUUAAUUUGUAAACAUGUUUAUUUUGUUUGGGUAAUUUGGUUCAUUAAGUACAUAGCUAAGGUAAUGAACAUCUUUUUCAGUAAUUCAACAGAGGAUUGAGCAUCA` has a bound/input enrichment of 0.365 ratio.
`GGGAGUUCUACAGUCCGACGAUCUAAAUUAGGGCUGCCGUUUUCUGUUUCUCCCUGGGCUGCAGACAGCUAGGCGGUUUUAUCUAGCUUAUACAAGGCUGCUGGUGUUCCCUCUUUUUUUCCACGAGGGUGUUUUUGGCUGCACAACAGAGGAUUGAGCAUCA` gave a bound/input enrichment of 1.12 ratio.
The bound/input enrichment of `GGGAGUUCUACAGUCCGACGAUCGCACUUGGGAAUGUAAUCAGCGCCUUGGGAGACAAGAGCAAGAGAGCCACCCAUGUCCCUUACAGAGACUCUAAGCUGACAAGACUCUUGCAGGAUUCCCUUGGGGGUAACAGCCAAACCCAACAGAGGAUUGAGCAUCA` is reported as 0.101 ratio.
`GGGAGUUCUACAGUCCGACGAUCCUAAUCCCCUUUACUGCUCCCCCACUUCUCAUGGUAAUAACAAAGUCUUAUAUCCCCGUCCUAGCUUUCACUCAGAUGGCUUAUGGAGCCGGUUUCCUAGCUUUCUUGGGAGGGAUCAGACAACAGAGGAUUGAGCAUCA` has a bound/input enrichment of 0.409 ratio.
With `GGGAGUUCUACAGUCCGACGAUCACUCUUGACUCUUUCCAUCCUCUUCCUUUUCCUCUUGAUAUUCAAGGCCAUGAAUCCCAAAAUAACAGUCUUAGUGGGAGGCUAGCAAACAGAGGUGGAAUAAAUCCACCCCAGUGUCUCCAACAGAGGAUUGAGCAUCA` the bound/input enrichment was 0.487 ratio.

Set 2
Target: Probable WRKY transcription factor 33, C-terminal DNA-binding domain (WRKY33, Arabidopsis thaliana, UniProt Q8S8P5, residues 346-449)
Technique: DNA-protein interaction ELISA
Molecule type: double-stranded DNA, one strand shown
Sample: in vitro, bacterial lysate
Concentration: not given
Setting: whole dsDNA probe, crude lysate protein
Relative to: highest signal in screen
Reading: higher = stronger binding
Target sequence (chain): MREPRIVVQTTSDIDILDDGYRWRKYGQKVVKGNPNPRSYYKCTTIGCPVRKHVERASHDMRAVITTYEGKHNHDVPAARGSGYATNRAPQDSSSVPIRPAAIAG
`AAAAAATATCTGATCCAATTTAGGTCAAAA` gave a relative absorbance of 34.2 % of maximum.
`AAAAAAGAGTGGTTTATTAATGTATAAAAA` has a relative absorbance of 44.8 % of maximum.
The relative absorbance of `AAAAAATTAGGACCATCCCCACTAGGAAAA` is reported as 35.6 % of maximum.
For `AAAAAACCAGTCTACACCGCTGTAGGAAAA`, the relative absorbance was 42.1 % of maximum.
`AAAAAAGTTATTATACCTGATCTCGCAAAA` has a relative absorbance of 33.4 % of maximum.
`AAAAAATCATTTTATTTTGCCTTTCTAAAA` has a relative absorbance of 30.9 % of maximum.
The relative absorbance of `AAAAAAGGGCGAGCGCTGGATCCACAAAA` is reported as 52.2 % of maximum.
`AAAAAAGCTCCCGTCTCTTAGTTCTAAAAA` has a relative absorbance of 30.9 % of maximum.

Set 3
Target: Muscarinic acetylcholine receptor M5 (CHRM5, Homo sapiens, UniProt P08912)
Chain of UniProt P08912 (whole entry, looked up): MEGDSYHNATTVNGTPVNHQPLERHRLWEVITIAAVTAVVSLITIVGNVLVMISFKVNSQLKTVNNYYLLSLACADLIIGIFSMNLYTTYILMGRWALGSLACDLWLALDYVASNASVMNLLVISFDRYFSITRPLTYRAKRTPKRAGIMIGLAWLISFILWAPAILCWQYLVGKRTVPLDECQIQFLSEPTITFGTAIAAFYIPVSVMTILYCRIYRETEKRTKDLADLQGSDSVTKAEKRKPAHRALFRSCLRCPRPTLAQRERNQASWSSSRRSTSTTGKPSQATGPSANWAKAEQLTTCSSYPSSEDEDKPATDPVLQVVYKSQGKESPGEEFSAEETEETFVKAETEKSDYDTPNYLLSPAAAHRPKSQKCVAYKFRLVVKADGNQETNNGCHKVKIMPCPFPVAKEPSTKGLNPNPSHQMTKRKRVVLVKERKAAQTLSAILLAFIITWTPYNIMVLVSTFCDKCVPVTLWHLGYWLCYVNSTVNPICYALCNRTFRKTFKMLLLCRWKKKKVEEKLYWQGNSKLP
Effect on: binding
Technique: radioligand binding
Concentration: 10 µM
`O=C(NC[C@@H]1[C@H]2CN(C(=O)OCc3cc(C(F)(F)F)cc(C(F)(F)F)c3)C[C@@H]12)c1ccc2[nH]nnc2c1` gave an inhibition of 15.3%.
With `C[C@@H]1CN(c2cc(-c3nn(C)c4ccc(OC5(C)CC5)cc34)ncn2)C[C@H](C)O1` the inhibition was 2.87%.
`CC1=C(C#N)[C@@H](c2ccc3[nH]nc(C)c3c2)C(C#N)=C(c2ccc(Cl)cc2)N1` gave an inhibition of 9.95%.
`O=C1c2ccc(Nc3ccc(F)cc3F)cc2CCc2ccc(OC[C@H](O)CO)cc21` has an inhibition of -9.46%.
The inhibition of `CC(C)(O)c1cncc(-c2nc3ccc(F)cc3n2C2CC2)c1` is reported as -2.81%.
`O=C(Nc1ccc(-n2nc(-c3cccnc3)cc2C(F)(F)F)cn1)c1ccc(-c2ccccc2)c(F)c1` gave an inhibition of 0.37%.
`Cc1c(NC(=O)c2cc(C(N)=O)nc3cc(F)ccc23)c(C(F)(F)F)nn1Cc1ccc(C(C)(C)C)cc1` gave an inhibition of 7.12%.
The inhibition of `CC(=O)Nc1c(F)cc(C(=O)N[C@H]2CC[C@H](O)CC2)cc1O[C@@H](C)c1ccccc1` is reported as 0.93%.
`CN([C@@H]1CCc2c(CC(=O)O)c3cc(S(C)(=O)=O)ccc3n2C1)S(=O)(=O)c1ccc(F)cc1` has an inhibition of -6.18%.
With `CS(=O)(=O)NCC[C@H](NC(=O)c1cncc2c1cnn2-c1ccc(F)cc1)c1ccnc(S(C)(=O)=O)c1` the inhibition was 5.99%.
The inhibition of `Cc1nc(N2CC[C@@H](O)C2)ncc1-c1cc(C(F)(F)F)cc2[nH]ncc12` is reported as 0.643%.
`CCOCCn1cc(C(=O)Nc2ccc(-n3nc(-c4cccnc4)cc3C(F)(F)F)cn2)ccc1=O` has an inhibition of -11.2%.
With `CC(=O)c1c(NS(C)(=O)=O)c2cc(-c3ccc(Cl)cc3)c(-c3ccc(Cl)cc3Cl)nc2n(C)c1=O` the inhibition was -4.93%.

Other studies, line by line
For `CC(C(=O)O)c1ccc2c(c1)[nH]c1ccc(Cl)cc12` (stereo not drawn), the infection rate was 98.8% (Plasmodium berghei; inhibitor; Huh-7, GFP-expressing sporozoites, liver stage; 10 µM, 24 h; relative to: untreated control).

For quick reference, copied from above (set 3):
The inhibition of `CC(=O)Nc1c(F)cc(C(=O)N[C@H]2CC[C@H](O)CC2)cc1O[C@@H](C)c1ccccc1` is reported as 0.93%.
With `CC(=O)c1c(NS(C)(=O)=O)c2cc(-c3ccc(Cl)cc3)c(-c3ccc(Cl)cc3Cl)nc2n(C)c1=O` the inhibition was -4.93%.
`Cc1c(NC(=O)c2cc(C(N)=O)nc3cc(F)ccc23)c(C(F)(F)F)nn1Cc1ccc(C(C)(C)C)cc1` gave an inhibition of 7.12%.
